Assay results of several laboratories.
Every numbered part comes from another study and shows a few of its results, in no order. Changes are numbered by the printed parent chain.

Study 1
Target: CCND3, cyclin fold, Cln2 fusion (human)
Method: yeast growth competition, sequencing
Matrix: yeast
Notes: weak parent motif
Baseline: not given
Reading: higher = stronger binding
Quantity: normalised enrichment score
Starting sequence: E2F1 docking peptide (human); PPVKRRLDFETDH
PPVKRYLDFETDH [R6Y]: -0.313
PPVKRRLDFKTDH [E10K]: -0.00607
PPVKRRLDFETAH [D12A]: 0.123
PPVKRRLDFELDH [T11L]: 0.247
PPVKYRLDFETDH [R5Y]: 0.133
PPVKRRLDEETDH [F9E]: 0.299
PPVKHRLDFETDH [R5H]: -0.117
PPVKRLLDFETDH [R6L]: 0.0689

Study 2
Target: RING finger protein unkempt homolog, zinc fingers 1-6, GST-SBP tag (UNK, Homo sapiens, UniProt Q9C0B0, residues 30-357)
Chain of UniProt Q9C0B0 (30-357, looked up): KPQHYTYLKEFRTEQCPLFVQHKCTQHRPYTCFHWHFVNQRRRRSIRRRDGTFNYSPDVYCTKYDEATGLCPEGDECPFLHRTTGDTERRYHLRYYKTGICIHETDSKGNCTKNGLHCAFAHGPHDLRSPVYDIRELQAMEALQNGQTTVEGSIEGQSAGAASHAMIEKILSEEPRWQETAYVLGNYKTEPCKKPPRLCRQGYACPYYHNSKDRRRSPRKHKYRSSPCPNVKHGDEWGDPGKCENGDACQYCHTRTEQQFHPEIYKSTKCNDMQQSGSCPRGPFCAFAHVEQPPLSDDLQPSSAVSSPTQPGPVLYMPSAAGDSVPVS
Method: RNA Bind-n-Seq
Molecule type: RNA
Matrix: in vitro
Concentration: not given
Notes: RNA with constant flanks, human and mouse sites, ends assumed
Baseline: input RNA pool
Reading: higher = stronger binding
Quantity: bound/input enrichment
All sequences stand within: GGGAGUUCUACAGUCCGACGAUC … CAACAGAGGAUUGAGCAUCA
AUUGCUAUGGGAUUUCCUGCAGAAAGACUUGAAGGUGUAUACAGGAACAAUAUUGAUGAUGUAGUAAGGUUUUUGGAUUCAAAGCAUAAAAACCAUUACAAGAUAUACAAUCUAUGUGCU: 0.738 ratio
CACGUCAUGCAUUUUUCUAAAUGGGCUGUUUCCAGUGGCAGCAGCACAGCCUUGCUGUACAGCAAGCGGCUGAUUACAUACAGGUUACGGCACCUUCUUCGUGCAAGGUGUGAUGCUUCU: 0.138 ratio
UCCCGGACCGCAGCGUUAAAAGGAUCUGAACAAAGUCUGCUCAAAUCUCCUGCUGUGAACCAGCAGAAUUUUUGAACAGGUUUCUUCACAUAUAAAAAUCUAUUGUAAAAAUACGGAAAA: 0.216 ratio
ACCAAGUGUACUGUACUCACCCCCCAGGAUAGAGAAGUGUUUGUUAGGGAGAGAAGAGGGAGAGGCAGGAGCCGGCCCAAGCCCAGGGUCCCUGCUUGGGCCCCAGAAAGCACUUAACCA: 0.484 ratio
GCAAUCAGGCUGUAUGAACGAGGUGACGCAUCCAAAGAAGACAUUGACACUGCUAUGAAAUUAGGAGCCGGUUACCCCAUGGGCCCAUUUGAGCUUCUAGAUUAUGUCGGACUGGAUACU: 0.247 ratio
CAGUAGCGCUUCAGCCAGCAGUUGUAGAAUGCUAUUUAUUCGUGUCUGUAAGUUUGUACAUAACCCUAACCUCGUAGGCAAGUUUGAGUUUUCUUUCCUUUGAUGCAGAUGCUUGGGUUU: 0.366 ratio
GUCUGCAAAAUGGCUCAAACCAGUUUACUGCAAGGGAAGCAGUUUUACUGUAGGGAGUGGGUUUUCCACAAGCUUCAGCAUUGCCUCCAGGAGAAAAGUAACUGCUGCAAUAGUGCUGUC: 0.266 ratio
UAGUAUGUGAAUUUUAUACAAUUGGAAGUCAUCCUCCCCUGGCUCCCACUUCUGUCUUCAAGUUUUGCCUGUUUCCACUUUUUCUCCCAAACCAUUUCUGCUACAGUGUUCCCUGAACCG: 2.8 ratio
AUAUCUUUCGUUUUGGCUUGGUUCGAGGAAGGGGAAGAAACGAUUACAGCCUUUGUAGAGCCGUUUGUAAUUCUGCUUAUCUUGGUAGCCAAUGCAAUCGUGGGUGUGUGGCAGGAAAGA: 0.227 ratio

Study 3
Target: Interferon regulatory factor 5, full length, phosphomimetic (IRF5, Homo sapiens, UniProt Q13568-2, residues 1-514, S451D/S453D/S456D/S462D)
Method: protein-binding microarray
Molecule type: double-stranded DNA, one strand shown
Matrix: in vitro
Concentration: 940 nM top
Notes: 60-bp whole probe
Added: salmon DNA 0.4 mg/ml
Baseline: random background probes
Reading: higher = stronger binding
Quantity: fitted relative affinity
All sequences stand within: GCCTAGCAC … GTCTTGATTCGCTTGACGCTGCTG
GACGAACTGAGTATCGACACGTGCTAG: 1.69 z-score
TTAAGTTTCCTTCTCCTTTAGTGCTAG: 2.2 z-score
TTAGGACTCCTTCTCCTTTAGTGCTAG: 0.0169 z-score
TACGAACTGGGGACTGGAGACGTGCTA: -0.0226 z-score
GACGATTTCGACACTGGGGACGTGCTA: 0.397 z-score
TTAGGACTGGGGCTGGGTTAGTGCTAG: -0.368 z-score
GACTATCTCAGTATCGAGACGTGCTAG: 2.25 z-score

Mixed results
PhoQ, residues 284 288 289 292 302 303 AGGCYF  fold induction (PhoP, residues 12 14 15 18 19 AQALL (Escherichia coli, UniProt P23836); Sort-seq, measured: YFP reporter; E. coli; PhoQ-PhoP variant library, added: 10 µM Mg2+; baseline: high Mg2+ state, higher = stronger signaling): 2.09
